Published values of several laboratories.
Lines come from different studies, so protocols differ. ± gives the spread as reported.

Structure (SMILES) | assay | test system | conditions | tissue uptake
N#C[C@@H]1CCCN1C(=O)CNC(=O)c1ccnc2ccc(OCCCN3CCN(C(=O)CCc4ccc5c(c4)CN4CCN(Cc6cc(CCC(=O)O)ccc6O)CC(=O)[O][Al-]([18F])([O]C(=O)C4)[O]5)CC3)cc12 (stereo partly shown) |  | BALB/c nude mice, U-87 MG xenograft, brain | 1 h, blocking, with: DOTA-FAPI-04 40 nmol/mouse co-injected | 0.05 ± 0.01 %ID/g
CC(C)C[C@H](NC(=O)[C@@H](CCCCNC(=O)[C@@H](Cc1ccccc1)NC(=O)CCCCCCCNC(=O)CN1CCN(CC(=O)O)CCN(CC(=O)O)CCN(CC(=O)O)CC1)NC(=O)[C@H](Cc1ccc(O)cc1)NC(=O)[C@H](CO)NC(=O)[C@H](Cc1c[nH]c2ccccc12)NC(=O)[C@H](Cc1c[nH]cn1)NC(=O)[C@@H]1CCC(=O)N1)C(=O)N[C@@H](CCCNC(=N)N)C(=O)N1CCC[C@H]1C(=O)NCC(N)=O [indium-111 labelled] | biodistribution | male athymic nude mice, DU-145 prostate cancer xenograft, lung | intravenous, 0.037 MBq, 2 h post-injection | 0.21 ± 0.04 %ID/g
CCCC[C@H](NC(=O)COCCOCCNC(=O)CN1CCN(CC(=O)O)CCN(CC(=O)O)CC1)C(=O)N[C@H]1CC(=O)NCCCC[C@@H](C(N)=O)NC(=O)[C@H](Cc2c[nH]c3ccccc23)NC(=O)[C@H](CCCNC(=N)N)NC(=O)[C@@H](Cc2ccccc2)NC(=O)[C@H](Cc2c[nH]cn2)NC1=O [fluorine-18 labelled] |  | C57 mice B16-F10 melanoma, liver | intravenous, 0.37 MBq, 0.5 h | 1.57 ± 0.28 %ID/g
COc1ccc(Nc2nc(Nc3ccc(OCCOCCOCC[18F])cc3)ncc2Br)cc1 |  | ICR mice, S180 tumour-bearing, spleen | intravenous, 370 kBq, 30 min | 1.47 ± 0.13 %ID/g
N#C[C@@H]1CCCN1C(=O)CNC(=O)c1ccnc2ccc(OCCCN3CCN(C(=O)CCc4ccc5c(c4)CN4CCN6CC(=O)[O][68Ga-]([O]C(=O)C4)([O]5)[O]c4ccc(CCC(=O)N5CCN(CCCOc7ccc8nccc(C(=O)NCC(=O)N9CCC[C@H]9C#N)c8c7)CC5)cc4C6)CC3)cc12 |  | BALB/c nude mice, U-87 MG xenograft, lung | 1 h, blocking, with: DOTA-FAPI-04 40 nmol/mouse co-injected | 3.34 ± 0.57 %ID/g
O=C(NCC1OC2CCC=CCCC2O1)c1ccc(COCCOCCOCC[18F])cc1 (stereo not shown) |  | healthy female BALB/c nude mice, skin | intravenous, 7.4 MBq per mouse, 30 min | 2.6 ± 0.2 %ID/g
O=C([O-])CN1CCN(CC(=O)[O-])CCN(CC(=O)NC[C@H]2CC[C@H](C(=O)N[C@H](Cc3cnc4ccccc4c3)C(=O)NCCCC[C@H](NC(=O)N[C@@H](CCC(=O)O)C(=O)O)C(=O)O)CC2)CCN(CC(=O)[O-])CC1.[64Cu+2] | ex vivo gamma counting | 22Rv1 tumour-bearing mice, brain | intravenous, 0.74 MBq, 24 h post-injection | 0.66 %ID/g
O=C(NCC1OC2CCC=CCCC2O1)c1ccc([18F])nc1 (stereo not shown) |  | female BALB/c nude mice, LS174T tumour, blood | intravenous, 60 min, with: CC49-tetrazine 24 h before | 0.9 ± 0.2 %ID/g
N#C[C@@H]1CCCN1C(=O)CNC(=O)c1ccnc2ccc(OCCCN3CCN(C(=O)CCc4ccc(O)c(CN5CCN6CC(=O)[O][Al-]([18F])([O]C(=O)C5)[O]c5ccc(CCC(=O)N7CCN(CCCOc8ccc9nccc(C(=O)NCC(=O)N%10CCC[C@H]%10C#N)c9c8)CC7)cc5C6)c4)CC3)cc12 (stereo partly shown) |  | BALB/c nude mice, U-87 MG xenograft, kidney | 1 h | 4.21 ± 0.77 %ID/g
COc1ccc2c(c1)C(C)(C)C(/C=C/C1=C(Oc3ccc(C(=O)NCCCCOc4cc(CN(Cc5ccccn5)Cc5ccccn5)cc(CN(Cc5ccccn5)Cc5ccccn5)c4)cc3)C(=C/C=C3/N(CCCCS(=O)(=O)[O-])c4ccc(OC)cc4C3(C)C)CCC1)=[N+]2CCCCS(=O)(=O)[O-].O=[N+]([O-])[O-].O=[N+]([O-])[O-].[99Tc+].[C-]#[O+].[C-]#[O+].[C-]#[O+].[Zn+2] |  | healthy BALB/c mice, adrenals | 12 h, group mean | 2.36 %ID/g
CCCC[C@H](NC(=O)CNC(=O)CNC(=O)[C@H](CCCCNC(=O)[C@H](CC(=O)O)NC(=O)C(C)c1ccc(CC(C)C)cc1)NC(=O)CN1CCN(CC(=O)O)CCN(CC(=O)O)CCN(CC(=O)O)CC1)C(=O)N[C@H]1CC(=O)NCCCC[C@@H](C(N)=O)NC(=O)[C@H](Cc2c[nH]c3ccccc23)NC(=O)[C@H](CCCNC(=N)N)NC(=O)[C@@H](Cc2ccccc2)NC(=O)[C@H](Cc2c[nH]cn2)NC1=O (stereo partly shown) [lutetium-177 labelled] |  | C57 mice, tumour-bearing, bone | intravenous, 0.037 MBq, 4 h | 0.25 ± 0.08 %ID/g
Cc1cc(C)n(CCN(CCN)CCCCCCNC(=O)[C@@H](N)Cc2c[nH]cn2)n1.[99Tc+].[C-]#[O+].[C-]#[O+].[C-]#[O+] |  | BALB/c nude mice, A549 xenograft, heart | intravenous, 4 h | 0.4 ± 0.03 %IA/g
CCCC[C@H](NC(=O)CNC(=O)CNC(=O)[C@H](CCCCNC(=O)[C@H](CCN)NC(=O)C(C)c1ccc(CC(C)C)cc1)NC(=O)CN1CCN(CC(=O)O)CCN(CC(=O)O)CCN(CC(=O)O)CC1)C(=O)N[C@H]1CC(=O)NCCCC[C@@H](C(N)=O)NC(=O)[C@H](Cc2c[nH]c3ccccc23)NC(=O)[C@H](CCCNC(=N)N)NC(=O)[C@@H](Cc2ccccc2)NC(=O)[C@H](Cc2c[nH]cn2)NC1=O (stereo partly shown) [lutetium-177 labelled] |  | C57 mice, tumour-bearing, heart | 2 h | 0.44 ± 0.18 %ID/g
COc1ccc(Nc2nc(Nc3ccc(OCCOCC[18F])cc3)ncc2Br)cc1 |  | ICR mice, S180 tumour-bearing, spleen | intravenous, 370 kBq, 5 min | 2.94 ± 0.01 %ID/g
CCCC[C@H](NC(=O)CCCCCCCNC(=O)CN1CCN(CC(=O)O)CCN(CC(=O)O)CC1)C(=O)N[C@H]1CC(=O)NCCCC[C@@H](C(N)=O)NC(=O)[C@H](Cc2c[nH]c3ccccc23)NC(=O)[C@H](CCCNC(=N)N)NC(=O)[C@@H](Cc2ccccc2)NC(=O)[C@H](Cc2c[nH]cn2)NC1=O [fluorine-18 labelled] |  | C57 mice B16-F10 melanoma, kidneys | intravenous, 0.37 MBq, 0.5 h | 15 ± 0.8 %ID/g
Cc1cc(C)n(CCN(CCN)CCCCCCNC(=O)[C@@H](N)Cc2c[nH]c3ccccc23)n1.[99Tc+].[C-]#[O+].[C-]#[O+].[C-]#[O+] |  | BALB/c nude mice, A549 xenograft, muscle | intravenous, 4 h | 0.14 ± 0.02 %IA/g
